{"data": "Results gathered from unrelated publications", "note": "A part holds a random share of what one study measured. Positions count from the first letter of the parent shown."}
{"data": "Set 1", "target": "RNA binding protein fox-1 homolog 2, RRM domain, GST-SBP tag (RBFOX2, Homo sapiens, UniProt O43251-10, residues 100-194)", "technique": "RNA Bind-n-Seq", "molecule type": "RNA", "sample": "in vitro", "tested at": "365 nM", "setting": "natural RNA segment, single round, ends assumed", "relative to": "no-protein control", "reading": "higher = stronger binding", "shared flanks, not repeated": "GGGAGUUCUACAGUCCGACGAUC … UGGAAUUCUCGGGUGCCAA", "Residues (chain)": "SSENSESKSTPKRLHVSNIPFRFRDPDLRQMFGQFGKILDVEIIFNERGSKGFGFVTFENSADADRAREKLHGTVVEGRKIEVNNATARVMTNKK"}
{"Sequence": "UUAACCUGACCCAGCAUGGAAGGAGGUGUGGGUACCUUCUCAGAAAGUCCUUAAUUUACAGUGGCCUGUAGCCUGUGGCCGUGGCCGUGGCUGUGGCCUGCUGCCUGCUC", "RBNS enrichment (R)": 4.03}
{"Sequence": "GGAGGAUUGUCUGUUUGGCUGACACAGCAGCAGCCCUUCCCACCCAGCCACCUUCCUCACAGGGACUAGGAGGCUCAGUCCCCAACGGCUGGCAAGACUCAGGGUCCUCA", "RBNS enrichment (R)": 0.316}
{"Sequence": "AGCGCCUACUCCUUCUUGGCGAAUGCUGCCUUCAGAUGCUUACCAAGUGGUCACUGCAUCUAGUAAGAUUAUAUUUCCAGUACACUUCCUUAGGGCAGAAACACCAUCCU", "RBNS enrichment (R)": 0.361}
{"Sequence": "UUCUGAACUACACUGCAUUGUUGUGCCGAGAACACCGAGCACUGAACUUUGCAAAGACCUUCGUCUUUGAGAAGACGGUAGCUUCUGCAGUUAGGAGGUGCAGACACUUG", "RBNS enrichment (R)": 0.417}
{"Sequence": "UAAUCGGUGUAAAUCGCUGUUUGGAUUUCCUGAUUUUAUAAUAGGGUGGCUGGUUAAUAUCUCACACAGUUUGAAAAAUCAGCCCCUGGUUUCUCCAUGUUUACACUUCA", "RBNS enrichment (R)": 0.276}
{"Sequence": "UAAAGCCAGUGAAAAUUUCACCCUCUGAGGGAGUUCCCCAAUCUGAAGGGGAAGAGGGUGACCUCAGCGGCUUUUCUCCCAAAAAUCGGCUGAAGGCUGGUUGUGGAUCC", "RBNS enrichment (R)": 0.856}
{"Sequence": "AAGUUGUAAACACAGUGUGGUUAUGGGGAGAGGGCAUAUAAAUUCCCCAUAUUUGUGUUCAGUUCCAGCUUUUGUAGAUGGCACUUUAGUGAUUGCUUUUAUUACAUUAG", "RBNS enrichment (R)": 0.682}
{"Sequence": "AAUGCACUUGUUGUCUGUCUUCUUUAAUCAAAUCACAUCUUAUAUACAGCAGUCAGAGAUGAGUAUACUAGAAUCAUGGAUUGCUGGAGGUCUUUUAAUCUGAUGUUCUC", "RBNS enrichment (R)": 0.539}
{"data": "Set 2", "target": "inorganic phosphate, free oxyanion", "technique": "microfluidic competitive inhibition", "sample": "in vitro, cell-free expressed", "tested at": "not given", "setting": "derived from inhibition constants, unchanged parent 615000 nM", "reading": "lower = stronger binding", "starting sequence": "PafA, mature enzyme, eGFP fusion (Elizabethkingia meningoseptica, UniProt Q9KJX5); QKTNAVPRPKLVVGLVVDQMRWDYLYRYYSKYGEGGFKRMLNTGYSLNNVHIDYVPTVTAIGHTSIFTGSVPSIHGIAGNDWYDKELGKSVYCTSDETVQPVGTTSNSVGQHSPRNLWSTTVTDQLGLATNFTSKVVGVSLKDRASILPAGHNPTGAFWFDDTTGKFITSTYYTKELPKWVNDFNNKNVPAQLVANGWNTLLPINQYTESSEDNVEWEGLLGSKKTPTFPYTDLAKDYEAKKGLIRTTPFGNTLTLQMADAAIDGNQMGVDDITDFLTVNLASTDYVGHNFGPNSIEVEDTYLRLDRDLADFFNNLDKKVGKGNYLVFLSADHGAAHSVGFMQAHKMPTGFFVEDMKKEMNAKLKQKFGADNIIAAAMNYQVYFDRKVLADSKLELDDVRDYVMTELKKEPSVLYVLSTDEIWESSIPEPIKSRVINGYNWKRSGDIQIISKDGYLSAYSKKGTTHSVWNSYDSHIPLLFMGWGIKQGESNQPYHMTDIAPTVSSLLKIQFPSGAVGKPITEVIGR"}
{"Change": "F229G", "phosphate dissociation constant": "128 µM"}
{"Change": "S474G", "phosphate dissociation constant": "419 µM"}
{"Change": "K242V", "phosphate dissociation constant": "532 µM"}
{"Change": "S392G", "phosphate dissociation constant": "584 µM"}
{"Change": "K346G", "phosphate dissociation constant": "495 µM"}
{"Change": "V270G", "phosphate dissociation constant": "627 µM"}
{"Change": "T3V", "phosphate dissociation constant": "635 µM"}
{"Change": "Y28G", "phosphate dissociation constant": "405 µM"}
{"Change": "P519G", "phosphate dissociation constant": "634 µM"}
{"Change": "F158V", "phosphate dissociation constant": "569 µM"}
{"Change": "Q111G", "phosphate dissociation constant": "607 µM"}
{"Change": "V215A", "phosphate dissociation constant": "623 µM"}
{"Change": "Q267G", "phosphate dissociation constant": "575 µM"}
{"Change": "S65G", "phosphate dissociation constant": "482 µM"}
{"Change": "L506V", "phosphate dissociation constant": "621 µM"}
{"Change": "N324G", "phosphate dissociation constant": "506 µM"}
{"Change": "V413A", "phosphate dissociation constant": "758 µM"}
{"Change": "Y494G", "phosphate dissociation constant": "549 µM"}
{"data": "Set 3", "target": "UDP-N-acetylglucosamine--peptide N-acetylglucosaminyltransferase 110 kDa subunit (OGT, Homo sapiens, UniProt O15294)", "observed": "binding", "technique": "phage display NGS", "molecule type": "peptide", "tested at": "concentration not given", "relative to": "input library", "Target sequence (O15294 1-1046)": "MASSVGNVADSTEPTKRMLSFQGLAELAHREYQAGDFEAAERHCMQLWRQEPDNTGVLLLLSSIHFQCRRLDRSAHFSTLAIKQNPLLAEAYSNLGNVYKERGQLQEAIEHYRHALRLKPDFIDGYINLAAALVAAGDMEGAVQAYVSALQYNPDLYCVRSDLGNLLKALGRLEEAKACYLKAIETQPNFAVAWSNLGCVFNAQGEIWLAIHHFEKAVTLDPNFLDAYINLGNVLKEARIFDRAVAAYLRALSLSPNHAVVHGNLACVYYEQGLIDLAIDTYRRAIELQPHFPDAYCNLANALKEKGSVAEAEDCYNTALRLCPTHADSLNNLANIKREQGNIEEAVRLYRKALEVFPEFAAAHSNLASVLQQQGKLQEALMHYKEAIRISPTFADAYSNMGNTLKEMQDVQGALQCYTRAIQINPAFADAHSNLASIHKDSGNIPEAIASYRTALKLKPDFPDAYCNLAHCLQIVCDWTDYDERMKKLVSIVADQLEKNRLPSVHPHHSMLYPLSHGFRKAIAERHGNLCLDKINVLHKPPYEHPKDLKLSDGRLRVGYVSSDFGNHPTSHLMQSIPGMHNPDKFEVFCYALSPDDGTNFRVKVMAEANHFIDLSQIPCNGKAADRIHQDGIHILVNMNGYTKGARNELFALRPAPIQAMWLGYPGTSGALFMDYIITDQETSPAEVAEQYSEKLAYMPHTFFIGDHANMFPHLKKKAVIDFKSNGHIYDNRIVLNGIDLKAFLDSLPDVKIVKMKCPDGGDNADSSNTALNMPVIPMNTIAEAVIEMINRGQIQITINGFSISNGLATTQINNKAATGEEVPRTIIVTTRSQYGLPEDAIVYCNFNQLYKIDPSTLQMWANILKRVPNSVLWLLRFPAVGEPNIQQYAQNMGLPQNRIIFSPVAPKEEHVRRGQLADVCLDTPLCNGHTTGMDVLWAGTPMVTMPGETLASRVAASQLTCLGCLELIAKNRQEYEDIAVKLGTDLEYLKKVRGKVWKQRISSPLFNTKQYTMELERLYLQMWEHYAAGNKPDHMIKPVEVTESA"}
{"Sequence": "VHIDNWNHHHYAAVE", "enrichment fold change": 6.04}
{"Sequence": "FPVHHHYKWFQHEVD", "enrichment fold change": 6.37}
{"Sequence": "HLHRDIHNKYNSIVN", "enrichment fold change": 2.6}
{"Sequence": "RHTQIKHHVPHQLF", "enrichment fold change": 4.12}
{"Sequence": "QPTKHFRSHHTYTAN", "enrichment fold change": 7.54}
{"Sequence": "WMENFHMPSMMHIQY", "enrichment fold change": 2.63}
{"data": "Set 4", "target": "Ras GTPase-activating protein-binding protein 1, C-terminal RGG region (G3BP1, Homo sapiens, UniProt Q13283)", "technique": "RNA Bind-n-Seq", "molecule type": "RNA", "sample": "in vitro", "tested at": "1 µM", "setting": "whole 134-nt RNA, ends assumed", "added": "150 mM KCl", "relative to": "input library", "reading": "higher = stronger binding", "shared flanks, not repeated": "GGGAGUUCUACAGUCCGACGAUC … UGGAAUUCUCGGGUGUCAAGG", "chain of UniProt Q13283 (whole entry, looked up)": "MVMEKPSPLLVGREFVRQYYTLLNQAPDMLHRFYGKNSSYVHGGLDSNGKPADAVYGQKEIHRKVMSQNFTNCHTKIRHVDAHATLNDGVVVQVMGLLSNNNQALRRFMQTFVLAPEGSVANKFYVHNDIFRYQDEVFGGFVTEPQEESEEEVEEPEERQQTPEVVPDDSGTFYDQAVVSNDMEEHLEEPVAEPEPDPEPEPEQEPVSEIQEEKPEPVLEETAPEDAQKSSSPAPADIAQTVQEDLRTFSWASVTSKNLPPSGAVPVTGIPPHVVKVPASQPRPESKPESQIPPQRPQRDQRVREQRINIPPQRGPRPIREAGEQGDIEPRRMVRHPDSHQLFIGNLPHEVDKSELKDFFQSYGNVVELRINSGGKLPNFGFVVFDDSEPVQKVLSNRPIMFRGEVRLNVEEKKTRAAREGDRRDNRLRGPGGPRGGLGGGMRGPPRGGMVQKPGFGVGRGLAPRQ"}
{"Sequence": "UUUGUAGAGCAGCCCGACGGCCAUGGAGGCUGAAGAGACGAUGGAAUGCCUUCAGGAGUUCCCUGAACAUCAUAAAAUGAUCCUCGACCG", "log2 enrichment": -0.698}
{"Sequence": "CAAGUCCUGUGCUACACAUCGUAUGUACCGAAUCGGAAAGGGGAAAGGGAAAGGGGAAAGUAUUAUGUUACGCCGUUCGGAUCUGCACUU", "log2 enrichment": -0.0936}
{"Sequence": "AGUCCUGUGCUACACAUCGUAUGUACCGAAUCGGGGAAAAAGGAAAAAGGGAAAAAGGAAAGUAUUAUGUUACGCCGUUCGGAUCUGCAC", "log2 enrichment": -1.72}
{"Sequence": "ACCAUGCAGUUGGGCAUCUUUGGGAAGUGGGGCAAGGGGGGGAUAGGGAGGGGGGUAACACUUUGGGAACAGGUGGUCCCAGGUCGUUUC", "log2 enrichment": -1.13}
{"Sequence": "ACCAUGCAGGUGGGCAUCUUUGGGAAGUGGGGCAAGGGGGGGAUAGGGAGGGGGGUAGCACUUUGGGAACAGGUGGUCCCAGGUCGUUUC", "log2 enrichment": 2.31}
{"Sequence": "GCAGGAAGUAAAAACAAAUGGAAAUGCUUCGGAUAGUGGCAGGGGUGGGGGUUGCUAAGGAAAGGGUGGGAUGGGAAUGGGUAAAGAGUU", "log2 enrichment": 2.25}
{"Sequence": "AGUCCUGUGCUACACAUCGUAUGUACCGAAUCAAAUUUAAAUUUUUAAAUUUUUAAAAAAGUAUUAUGUUACGCCGUUCGGAUCUGCACU", "log2 enrichment": -2.7}
{"Sequence": "UGGCCCUGGUGGCAUGCGGGGAGGAAGAGGUGGCCUCAUGGAUCGUGGUGGUCGCGGUGGAAUGUUCAGAGGUGGCCGUGGUGGAGACAG", "log2 enrichment": 2.25}
{"note": "Repeated from above (set 2):"}
{"Change": "P519G", "phosphate dissociation constant": "634 µM"}
{"Change": "F158V", "phosphate dissociation constant": "569 µM"}
{"Change": "Q111G", "phosphate dissociation constant": "607 µM"}
{"Change": "V215A", "phosphate dissociation constant": "623 µM"}
{"Change": "Q267G", "phosphate dissociation constant": "575 µM"}
